Measured values pooled from the literature.
Parts stem from different laboratories: compare values within a part only.

Sample 1 — observed: enzyme activity; action: inhibitor; concentration: 20 µM; setting: primary screen; measurement: inhibition
Target: Replicase polyprotein 1ab, main protease (rep, Severe acute respiratory syndrome coronavirus 2, UniProt P0DTD1)
Oc1ccc2c3c1O[C@H]1c4[nH]c5ccccc5c4C[C@@]4(O)C(C2)N(CC2CC2)CC[C@]314: 33.8%
CC/C=C\C/C=C\C/C=C/C/C=C\C/C=C\C/C=C\CCC(=O)OCC: 30.1%
Cc1ccc(C(=O)n2nc(-c3cccnc3)nc2N)cc1: 46.3%

Sample 2 — method: universal PBM; form: double-stranded DNA, one strand shown; medium: in vitro; concentration: 600 nM; direction: higher = stronger binding; measurement: E-score
Target: Sal-like protein 4, full length isoform A (SALL4, Homo sapiens, UniProt Q9UJQ4, residues 1-1053)
UniProt Q9UJQ4, sequence (whole entry, looked up): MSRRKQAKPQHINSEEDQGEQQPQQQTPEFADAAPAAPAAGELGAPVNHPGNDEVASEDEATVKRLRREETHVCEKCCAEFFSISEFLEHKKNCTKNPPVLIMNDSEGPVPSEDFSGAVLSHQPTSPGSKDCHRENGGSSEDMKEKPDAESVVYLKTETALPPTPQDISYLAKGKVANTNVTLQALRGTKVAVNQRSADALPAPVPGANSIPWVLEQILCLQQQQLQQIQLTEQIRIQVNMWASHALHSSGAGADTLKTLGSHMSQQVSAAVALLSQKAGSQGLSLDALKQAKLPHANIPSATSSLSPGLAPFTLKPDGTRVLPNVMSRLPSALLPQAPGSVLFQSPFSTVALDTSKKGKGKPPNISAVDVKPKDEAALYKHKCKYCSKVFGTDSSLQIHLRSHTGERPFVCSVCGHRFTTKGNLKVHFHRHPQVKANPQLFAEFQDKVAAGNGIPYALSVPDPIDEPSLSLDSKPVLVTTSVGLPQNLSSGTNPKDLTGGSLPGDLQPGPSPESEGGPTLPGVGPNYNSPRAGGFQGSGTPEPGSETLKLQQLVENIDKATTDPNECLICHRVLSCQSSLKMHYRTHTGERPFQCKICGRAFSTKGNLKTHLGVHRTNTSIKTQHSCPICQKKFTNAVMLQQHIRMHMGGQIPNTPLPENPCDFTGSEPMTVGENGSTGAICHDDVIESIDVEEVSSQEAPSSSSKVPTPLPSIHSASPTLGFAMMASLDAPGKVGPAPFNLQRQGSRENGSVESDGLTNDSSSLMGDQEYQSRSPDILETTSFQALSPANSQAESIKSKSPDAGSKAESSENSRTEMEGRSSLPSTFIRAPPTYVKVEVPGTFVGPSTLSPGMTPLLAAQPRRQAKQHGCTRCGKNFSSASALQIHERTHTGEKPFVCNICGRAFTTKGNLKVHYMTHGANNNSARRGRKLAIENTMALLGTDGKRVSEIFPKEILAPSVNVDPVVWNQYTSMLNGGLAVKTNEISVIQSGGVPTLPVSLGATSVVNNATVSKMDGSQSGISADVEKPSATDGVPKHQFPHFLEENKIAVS
Setting: 8-mer, flanks averaged, mean of replicates
CGATTGTA: 0.177
GATCTTAA: 0.0335
ATAGTGTC: 0.0965
AACCTACA: 0.124
AGTTTGCA: 0.0527
CGCTTTAA: 0.0392
GATACACA: 0.107
CTCAACTA: 0.00239

Sample 3 — observed: helicase ATPase activity; organism: SARS-CoV-2; concentration: 20 µM; measurement: inhibition
Target: Replicase polyprotein 1ab, nsp13 helicase (rep, Severe acute respiratory syndrome coronavirus 2, UniProt P0DTD1)
O=C1C=CC(=O)C2=C1C1c3ccccc3C2c2ccccc21: 108%
O=S(=O)(O)c1ccc(-c2c3nc(c(-c4ccc(S(=O)(=O)O)cc4)c4ccc([nH]4)c(-c4ccc(S(=O)(=O)O)cc4)c4nc(c(-c5ccc(S(=O)(=O)O)cc5)c5ccc2[nH]5)C=C4)C=C3)cc1: 103%
Cc1ccc(S(=O)(=O)/C=C/C#N)cc1: 105%
O=C1C=Cc2cc(Br)ccc2C1=O: 108%
CCN(CC)C(=S)S: 94.4%
CCC(C)SSc1ncc[nH]1 (stereo not shown): 108%
CC(C)N[C@@H]1CCn2c(=O)[nH]c3cccc(c32)[C@H]1O: 99.6%
CCOC(=O)C1=C(N)Oc2ccc(Br)cc2[C@H]1[C@H](C#N)C(=O)OCC: 106%
C=CC(=O)c1ccc2ccccc2c1: 106%
O=[N+]([O-])C=Cc1ccc2c(c1)OCO2: 101%
O=C(O)[C@@H](S)[C@@H](S)C(=O)O: 108%
Nc1nnc(Sc2ncc([N+](=O)[O-])s2)s1: 108%
CC(=O)OC[C@H]1O[C@@H]([S-])[C@H](OC(C)=O)[C@@H](OC(C)=O)[C@@H]1OC(C)=O.CCP(CC)CC.[Au+]: 108%
Cc1nc(C#Cc2ccnc(Cl)c2)c(C)n1-c1ccc(OC(F)(F)F)cc1: 105%
CC(=O)[O][Pt]([NH2])([Cl])([Cl])([NH]C1CCCCC1)[O]C(C)=O: 108%
CCn1c(N)c(C(=O)NC)c(=O)c2ccc(C#C[C@@](C)(O)COC)nc21: 106%
Oc1c(I)cc(I)c(O)c1I: 107%
CC(C)n1nc(C#Cc2ccccc2)c2c(N)ncnc21: 106%
O=c1[nH]nc(Sc2ncc([N+](=O)[O-])s2)n1-c1ccc2c(c1)OCCO2: 101%
O=C1C(c2ccccn2)=[N+]([O-])c2ccccc21: 106%
O=C(O)c1ccc(N2C(=O)/C(=C\c3ccc(-c4ccc([N+](=O)[O-])cc4)o3)C=C2c2ccccc2)cc1: 103%
O=C(/C=C/c1ccc2ccccc2n1)c1ccncc1: 108%
CC(C)(C)c1ccc(S(=O)(=O)/C=C/C#N)cc1: 106%

Sample 4 — method: EMSA with sequencing; form: double-stranded DNA, one strand shown; medium: in vitro; concentration: 10 and 20 nM; baseline: negative control set to 0; direction: higher = stronger binding; measurement: normalised bound fraction
Target: Hepatocyte nuclear factor 3-alpha (Foxa1, Mus musculus, UniProt P35582, residues 1-468, full length assumed)
UniProt P35582, sequence (whole entry, looked up): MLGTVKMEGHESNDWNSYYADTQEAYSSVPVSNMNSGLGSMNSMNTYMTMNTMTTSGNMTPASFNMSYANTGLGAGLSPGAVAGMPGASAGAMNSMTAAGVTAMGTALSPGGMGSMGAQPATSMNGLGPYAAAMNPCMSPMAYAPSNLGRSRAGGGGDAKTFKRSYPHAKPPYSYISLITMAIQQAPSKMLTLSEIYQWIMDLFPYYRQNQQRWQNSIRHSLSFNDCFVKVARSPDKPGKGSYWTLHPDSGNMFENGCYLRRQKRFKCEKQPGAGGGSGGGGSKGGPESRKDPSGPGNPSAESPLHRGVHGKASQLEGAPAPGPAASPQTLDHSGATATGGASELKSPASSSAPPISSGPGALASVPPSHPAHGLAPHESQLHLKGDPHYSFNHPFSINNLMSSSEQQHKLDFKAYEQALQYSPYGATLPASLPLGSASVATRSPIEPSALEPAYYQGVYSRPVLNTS
Setting: whole designed probe, mean of two concentrations, ends assumed
Constant ends, left off below: GTGAGCGGTGCCCATTGATGGGGAAC … TTTCACTGGGATCGTGGGGAC
CATTAGAGTCAAAGTTGTTAAGGGGAGCTAGTCATAGCTACCACGTGGCCAGGCATGTGGAACCAGACACCAGGCACACATCATGTAACATCATATTTACTTTAATGAATCATCACAACCTAGTTCATAGTGACACACTACTTGAGATATATAGAATAACATTATTACCCAGTAAGTATGTGAACATTCCGAT: 0.341 ratio
CCTTATTTCTTTTTTGAAAATACAGTGACTTAGCGAGTGATACAGTATGAATGAAAGTTTTGAAGTTGGTTCATGGTGTATAAAGAGAAACAAAGTAAACAAAGCTCTTAATGGAAATACATACTTGGGACCAAACAACAGCCTATCTAAATGTTTTTTTTTGGTATTCATTTGGAAATTAATCAGATAATAA: 0.487 ratio
CTGTTCCAGACCCTAGTCTTTCAATCTAATGTTTATACACAAATCTAGATTCAGATATCTATTTTGAATTTCATTTAGGTTTTTGTTTCTAAGTAAACATCAGAGGATTAGTTTGGGTTTTGTTCACCCATGTCTTTTAAAGTTCTAAAGAACCTTTGTATCTAAGCTCAACTTTATATTTAAGTTCAACTGC: 0.46 ratio
TTTTTTCTGTACAGGGAAAAATAGTGAATATTTCAAAATTGTGAAACAAAGAGTCTCTGTGGCAACTACTCATTGTTGCATAACAGACAATATGCAATCTAATGAGTGTGTCTGTGTTCCAATAAAACTGTATTTACAAAAGCAGAAGGCCACCCATGTGCCAATGTCCAAAGTTTCTCAACCAACCCCTGGT: 0.123 ratio
AACTATTATAAATAACAATTACAGAGGCGTATCAAAAAGGCTTTTAATTGAAGAGTATTTACAATTAAATTATAACAGAAAGAATACTGTAAAAGTAATCTAGTAAGTTCTTTTTGAAAAACAGGAATGTGTAACATTCAAAAAGACCACAAAAATTAATTTCTGTGTTACAGAATATTGAGAAATCCTATTC: 0.0953 ratio
ACTTTCATATGCTTCTGTAAAACCATCAAGCTGAATCGAATTCTCTTCAGGTATTCTTATCTCCCCGTAACTTGCCTTTGGTTCAGTCTCCATGTTTACATTCCCTTTATTTACAGGACTCCGCCTTTTATCTTTCTTTTGAGCTAAAAAAGCAACCTGGCTGGAGGTAATTATACTGAGAAATTCTGTATCA: 0.303 ratio
ATCTTCCCCCTCTTCCTTGCCCCACCAGCTCACCTTCCCGGGTTGTTTACTTTGAGCAAAGTAAACAAAGCCGGCATTCGTTAACCCTCTTCACGCGCATACTGCCAGAGCAAACAGATGAATCATGGTCCTTTGGCGACGCCAGGCTCCGGGAGAGCAAAGCACCGTGTCAGGGCCATGATCCGGGGTGGCC: 0.541 ratio

Sample 5 — cell line: HEK-293T; observed: pseudovirus infection; method: FDA-approved drug library screen; organism: VSV pseudotyped with SARS-CoV-2 spike; concentration: 10 µM; time: 16 h; baseline: vehicle-treated; measurement: GFP-positive cells
CCCCCCCC(=O)N[C@H](CN1CCCC1)[C@H](O)c1ccc2c(c1)OCCO2: 52%
COc1ccccc1OCC(O)COC(N)=O (stereo not shown): 100%
CC(C)(O/N=C(\C(=O)N[C@@H]1C(=O)N2C(C(=O)[O-])=C(C[n+]3ccccc3)CS[C@H]12)c1csc(N)n1)C(=O)O: 88.7%

Sample 6 — method: competition protein-binding microarray; form: double-stranded DNA, one strand shown; medium: in vitro; concentration: 2 µM; together with: Pho4 competitor, 0.05 µM; direction: higher = stronger binding; measurement: fluorescence intensity; constant ends, left off below: … GTCTTGATTCGCTTGACGCTGCTG
Target: Centromere-binding protein 1, full length, His-tagged (CBF1, Saccharomyces cerevisiae, UniProt P17106, residues 1-351)
UniProt P17106, sequence (whole entry, looked up): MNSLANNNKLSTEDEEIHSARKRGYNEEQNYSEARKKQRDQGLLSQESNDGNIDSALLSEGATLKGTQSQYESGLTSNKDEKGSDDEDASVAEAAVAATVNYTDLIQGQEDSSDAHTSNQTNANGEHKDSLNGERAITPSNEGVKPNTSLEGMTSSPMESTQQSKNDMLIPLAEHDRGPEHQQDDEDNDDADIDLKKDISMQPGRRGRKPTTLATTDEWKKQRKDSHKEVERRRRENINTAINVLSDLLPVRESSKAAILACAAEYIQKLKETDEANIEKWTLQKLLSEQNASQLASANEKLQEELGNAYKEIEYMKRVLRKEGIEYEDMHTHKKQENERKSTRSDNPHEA
Setting: whole 60-bp probe, lowest competitor level
TAAGGCCTCGGCTGGCACATGAGTCGCCGGAGGAGG: 52.2 a.u.
CTTTCCCGATCTTGATGAGTGGGTGTAGCACATTTG: 67.1 a.u.
AAAGCGGTAATTTGAGATGTGGGTGCAGATATCTAT: 78.2 a.u.
TGGCAGCGTAACTGGCACGGCCACATCGGTGGGATT: 55.7 a.u.
ATCGATGCTTTTGGCCACATGGGAGCCATATGCCAT: 90.8 a.u.
TATTGAAAGTTTGCGAACGTGAAGTAAAACTGCAAA: 90 a.u.
TTCCTTTCTCATCCCCTCGTGAAGCGACTCGGCCCC: 74.1 a.u.
AGAATCAAAGCTCACCACGTCATGGTTGCGAAAGCC: 67.7 a.u.
